Published values collected from several papers.
A part holds a random share of what one study measured.

Set 1
Target: RNA binding protein fox-1 homolog 2, RRM domain, GST-SBP tag (RBFOX2, Homo sapiens, UniProt O43251-10, residues 100-194)
Method: RNA Bind-n-Seq
Molecule type: RNA
Sample: in vitro
Concentration: 365 nM
Notes: natural RNA segment, single round, ends assumed
Relative to: no-protein control
Reading: higher = stronger binding
Endpoint: RBNS enrichment (R)
Constant ends, left off below: GGGAGUUCUACAGUCCGACGAUC … UGGAAUUCUCGGGUGCCAA
Construct (chain): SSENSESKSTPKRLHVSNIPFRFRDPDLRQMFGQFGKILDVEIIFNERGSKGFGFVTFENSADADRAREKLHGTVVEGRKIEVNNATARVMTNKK
GUCGAUGUAUGAUGUUAGUGUUGUAAGACACCAUGGCAGAAUCUUCAUUAUUCUCACCUAUUCUGAACCCUGCAUCAUGUAUCUGGGAUGCCCCCUCCCAAGUCCACCAA: 0.343
AGUCAACUGCUUUUUUAUUUAAAAUUUAAAGAAAAAAAAAAGAAAAAAAAAGCUGUAACCUUAUCAUUUCUGAGUAGACCAUUAAGAGAAAUGCACACCUGUCAGCCCAG: 0.867
UGUCAUUUGGAAGGAUUUGCCAGGACAGACUGAUUCUGAGUCCUGGGUGCCGUAUGUGUAUGCGGCAGUGUUGUCAGGCGAUCUUGUUUGAAGCUCUAUGUUGCCAUAAU: 5.85
UCUGACAUUACUUCCAGCAAAUAGGGAACAGUUUUGCCCUGGAACAGAGUUACAGAUACACAAUCAAGAGUGUUCUUGCUGAUGCUCGGGGUCUGAAGACUGUCUUCCUA: 0.261
GGGGUGGUGCAGGCCGGUAGUCUGCCCGUCACUUUGGAUCAUAGCCCUGGGCCUGGCGGCACAGCAGCACUUGCGUUCUCGGGGCUGUCGAUUUCCUGCCACCUGGGCAG: 0.294
UUUUCUGACAGUAUUAUGUAAUUUUUUAGCGUGGGUAGAUGGGAGUGUCGCUUGUAUGUUAUCGUACAGCUGACAUGUAUUUUUGUCUAUUCUUUAUUAUCUUAGUUUCA: 0.447
AAGGAAAGAUGGUAAUAGUGAGAGAUUCGGGGGGCACCCCCUCCCCAUUGGUUUCUGGCCCUUUCAGGCUACAACCCCCCAGCCUUGCAGGUGUCAGAACAGUCUCACAA: 0.333
GCUGCAUGAACCCACGCACCUGUCCCUGACCUGCUGCUCUGGUCUCCUCACUAGCUCCAAUGUUCCCAUGUUUCCAUUUGUGUGUCUUAUACGUGUAUGUGUGCCCUCUC: 2.14
ACUGCCCAACCUUUCCUGAUAAUCGUGGCAUGCGCCCUUUCCUCUUCCCUGCCCCACCCCCUGGCCGCAGCAGGCCAGCACUGCAGAGUUUGGGUGCUGGUGGUGUGGCU: 1.55
UGAGAAAAAUCAUUGUUUCUUGUGAAACUGCGUGUCUUCCCUAAAAAUAAUAAAAUUCAGAAAUGUUCGUUUGUUCUUGCUUUAGAGGGAAUGCCUACUCCCAGAAAGUG: 0.648
UGCUUGCACCUCAGGUAAAAAUCUGUAAAUAUCUAAGUUGUAAACCUGCUUGUUCAAAUACUGUGUGUAUUCCUUUUCUCUAAUGCAGCUCAUCACUUGGAGCAGUUUCU: 0.489
UUUCCUUUUUGACACUGAAAGUUUUGUAAAAGAAAUCCUAUCCAUACACGUUGUAAGAUGUGAAUUAUUGACACUGAGCUAACUGUACUGUUUGGAAAGGGGCCCUCAAG: 0.304

Set 2
Target: Interferon regulatory factor 5, full length, phosphomimetic (IRF5, Homo sapiens, UniProt Q13568-2, residues 1-514, K96S/S451D/S453D/S456D/S462D)
Method: protein-binding microarray
Molecule type: double-stranded DNA, one strand shown
Sample: in vitro
Concentration: 250 nM
Notes: 60-bp whole probe
With: salmon DNA 0.4 mg/ml
Relative to: random background probes
Reading: higher = stronger binding
Endpoint: log fluorescence
Constant ends, left off below: GCCTAGCAC … GTCTTGATTCGCTTGACGCTGCTG
TCATCTCAGAATCTCTCACTGTGCTAG: 0.676 z-score
ATTTTTTTGCATTGCTTCTAGTGCTAG: 1.16 z-score
GACGGACCGCTTTTCCTGACGTGCTAG: -0.274 z-score
TTAAGTATCGGACTGGGTTAGTGCTAG: 2.69 z-score
GACGATCTAAGTCTCGAGACGTGCTAG: -0.035 z-score
TCATAGTTTCTTTTCTTACTGTGCTAG: 2.81 z-score
GACGGACTGCTTTTCCTGTCGTGCTAG: 0.211 z-score
TTAGGTATACTTTTCCTTTAGTGCTAG: 0.369 z-score
GACGGACTGGGGACTGGGCACGTGCTA: -0.475 z-score
TCATGTTTGGTGTCTTTTACTGTGCTA: 0.506 z-score
TCACCTTTATGTCCTGTACTGTGCTAG: 0.445 z-score
TCAAATTTACTTTGGTTACTGTGCTAG: 0.402 z-score
GACGGTTTCGGTCTCTGGACGTGCTAG: 9.61 z-score
GACGGTTCCGGTTTCGGTACGTGCTAG: 8.09 z-score
TCATGTGTATATATAATACTGTGCTAG: 0.404 z-score
TCAGGGCTCTCTTCTGCTACTGTGCTA: -0.598 z-score
GACGATATCTGGTATCGAGACGTGCTA: 1.97 z-score
GTCGGTTTCGGACTGGGGACGTGCTAG: 5.04 z-score
TTACATCTCAGACTGGATTAGTGCTAG: 0.376 z-score
GTCGGACTGCTTTTCCTGACGTGCTAG: -0.105 z-score
TTAGATATCGGGTATGGATTAGTGCTA: 2.16 z-score
TTAGCTTTCGGTTCCGGTTAGTGCTAG: 10.8 z-score
TTAGGTCTCGTTTTCCTTTAGTGCTAG: 0.771 z-score
GACGGATTGGGGTTTCGGGACGTGCTA: 1.61 z-score
TCATGACTCCCTCTCTGACTGTGCTAG: -0.351 z-score

Set 3
Target: Ras GTPase-activating protein-binding protein 1, full length (G3BP1, Homo sapiens, UniProt Q13283)
Chain of UniProt Q13283 (whole entry, looked up): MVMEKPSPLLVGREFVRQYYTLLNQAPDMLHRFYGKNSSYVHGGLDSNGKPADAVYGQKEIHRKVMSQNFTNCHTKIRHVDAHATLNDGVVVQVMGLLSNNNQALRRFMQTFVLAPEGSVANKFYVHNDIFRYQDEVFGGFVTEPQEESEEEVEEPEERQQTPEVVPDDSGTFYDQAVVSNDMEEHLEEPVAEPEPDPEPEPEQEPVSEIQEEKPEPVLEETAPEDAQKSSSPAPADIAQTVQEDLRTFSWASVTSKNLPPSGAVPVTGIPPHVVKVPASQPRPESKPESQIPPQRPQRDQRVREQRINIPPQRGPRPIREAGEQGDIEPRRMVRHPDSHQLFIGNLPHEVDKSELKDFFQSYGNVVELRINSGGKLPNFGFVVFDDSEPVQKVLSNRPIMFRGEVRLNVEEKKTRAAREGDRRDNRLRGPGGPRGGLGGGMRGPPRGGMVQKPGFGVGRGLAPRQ
Method: RNA Bind-n-Seq
Molecule type: RNA
Sample: in vitro
Concentration: 200 nM
Notes: whole 134-nt RNA, ends assumed
With: 150 mM KCl
Relative to: input library
Reading: higher = stronger binding
Endpoint: log2 enrichment
Constant ends, left off below: GGGAGUUCUACAGUCCGACGAUC … UGGAAUUCUCGGGUGUCAAGG
CCUGUGCUACACAUCGUAUGUACCGAAUCGGGAAAAAAGGGGAAAAAAGGGAAAAAAGGGGAAAGUAUUAUGUUACGCCGUUCGGAUCUG: -0.293
ACCAUGCAGGUGGGCAUCAUUGGGAAGUGGGGCAAGGGGGGGAUAGGGAGGGGGGUAACACUUUGGGAACAGGUGGUCCCAGGUCGUUUC: 1.07
UAACUUUAGAGGAGGAUCUGAUGGAUAUGGCAGUGGACGUGGAUUUGGGGAUGGCUAUAAUGGGUAUGGAGGAGGACCUGGAGGUGGCGA: 0.409
AAGUCCUGUGCUACACAUCGUAUGUACCGAAUCGGGGCCCGGGGCCCGGCCCGGGGAAAGUAUUAUGUUACGCCGUUCGGAUCUGCACUU: -0.899
CACAGACAACACGCACCCACACAAACACAGAGGGAAGGGGUUGGGAUGGGGACAGGGUGCACAGCAGGGCGGGGUAGGACCCCAGCCCCU: 1.77
CAAGUCCUGUGCUACACAUCGUAUGUACCGAAUCGGGUUUGGGUUUGGGGUUUGGGAAAGUAUUAUGUUACGCCGUUCGGAUCUGCACUU: 0.528
AGUCCUGUGCUACACAUCGUAUGUACCGAAUCGGGUGGGAAAAAAAGGGAAAAAGGGAAAGUAUUAUGUUACGCCGUUCGGAUCUGCACU: -0.158
CAAGUCCUGUGCUACACAUCGUAUGUACCGAAUCGGCCCGGGCCCGGGCCCGGGGAAAGUAUUAUGUUACGCCGUUCGGAUCUGCACUUC: -1.18
CACAGACAACACGCACCCACACAGACACAGAGGGAAGUGGUUGGGAUGGGGACAGGGUGCACAGCAGGGCGGGGUAGGACCCCAGCCCCU: 1.91
GGUGAUGGUCAACAAGCCUCAACUGCCUCUGCUACAACUGCCAAGUUCCCCGCGUCCCACCCUCCUCUAGGUGCUCCAAGGGACCACCGG: 0.292
UGGCCCUGGUGGCAUGCGGGGAGGAAGAGGUGGUCUCAUGGAUCGUGGUGGUCCCGGUGGAAUGUUCAGAGGUGGCCGUGGUGGAGACAG: 0.43
UCAAGGGUUAUACACGGAAAGCCGCUGCGCUGGAAGCGAUGAAGGACUACACCAAAGCCAUGGAUGUGUACCAGAAGGCGCUAGACCUGG: -0.68
UGGGAGGUGGAUUUUGUUUAUUUUUUUAGCUCAUUACCAGGGGUGGGAAUUUUUUUUUAAUAUGUGUCAUGAAUAAAGUUGUUUUUGAAA: 0.0959
GCAGGAAGUAAAAACAAAUGGAAAUGCAUCGGAUAGUGGCAGGGGUGGGGGUUGCUAAGGAAAGGGUGGGAUGGGAGUGGGUAAAGAGUU: 1.16

Further values, each from its own experiment
PhoQ, residues 284 288 289 292 302 303 ASSHFY  fold induction (PhoP, residues 12 14 15 18 19 AQALL (Escherichia coli, UniProt P23836); Sort-seq, measured: YFP reporter; E. coli; PhoQ-PhoP variant library, with: 10 µM Mg2+; relative to: high Mg2+ state, higher = stronger signaling): 20.1

For quick reference, copied from above (set 2):
TCAAATTTACTTTGGTTACTGTGCTAG: 0.402 z-score
GACGGTTTCGGTCTCTGGACGTGCTAG: 9.61 z-score
GACGGTTCCGGTTTCGGTACGTGCTAG: 8.09 z-score
TCATGTGTATATATAATACTGTGCTAG: 0.404 z-score
TCAGGGCTCTCTTCTGCTACTGTGCTA: -0.598 z-score
GACGATATCTGGTATCGAGACGTGCTA: 1.97 z-score
GTCGGTTTCGGACTGGGGACGTGCTAG: 5.04 z-score
TTACATCTCAGACTGGATTAGTGCTAG: 0.376 z-score
